Measured values gathered from unrelated publications.
Each numbered part is a random draw from the data of one study; scales do not carry over between parts.

Series 1
Target: Interferon regulatory factor 7, full length, phosphomimetic (IRF7, Homo sapiens, UniProt Q92985, residues 1-503, S471D/S472D/S475D/S476D/S477D/S483D/S484D/S487D)
Method: protein-binding microarray
Molecule type: double-stranded DNA, one strand shown
Medium: in vitro
Tested at: 2200 nM top
Notes: 60-bp whole probe
Added: salmon DNA 0.4 mg/ml
Relative to: random background probes
Reading: higher = stronger binding
Constant ends, left off below: GCCTAGCAC … GTCTTGATTCGCTTGACGCTGCTG
Residues (chain): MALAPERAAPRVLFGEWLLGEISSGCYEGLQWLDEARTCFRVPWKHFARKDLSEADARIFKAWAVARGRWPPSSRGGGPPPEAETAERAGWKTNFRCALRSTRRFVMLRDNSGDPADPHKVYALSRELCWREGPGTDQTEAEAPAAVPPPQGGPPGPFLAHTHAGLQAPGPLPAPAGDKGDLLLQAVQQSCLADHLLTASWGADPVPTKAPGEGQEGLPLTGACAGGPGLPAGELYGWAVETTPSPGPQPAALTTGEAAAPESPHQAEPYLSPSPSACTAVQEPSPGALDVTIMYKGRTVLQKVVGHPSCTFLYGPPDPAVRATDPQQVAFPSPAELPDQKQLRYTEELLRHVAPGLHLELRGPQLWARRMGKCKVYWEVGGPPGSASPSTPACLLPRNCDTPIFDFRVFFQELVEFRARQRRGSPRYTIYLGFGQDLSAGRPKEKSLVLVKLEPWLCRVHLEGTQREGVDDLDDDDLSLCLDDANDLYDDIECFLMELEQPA
Oligonucleotide	fitted relative affinity [z-score]
TTAGGTTTCCTTCTCTTTTAGTGCTAG	2.21
GACGGGTTCGGTTCCGGGACGTGCTAG	1.42
TTAGATTTCAGGATCGATTAGTGCTAG	0.319
AACGATTTCGGGTATCGAGACGTGCTA	3.01
TTAGATTTCAGTTCCGATGAGTGCTAG	1.41
GACGGTTTCGACACTGGGAACGTGCTA	2.65
TTAGGTTTCGGACAGGGTTAGTGCTAG	1.73
GTCGGTATCGACTTTCGGGACGTGCTA	3.45
CAGGAATTGAAAATTAGTGTTGTGCTA	-0.47
TCACTCTTCTTTTTTTTACTGTGCTAG	1.71
CAATATTAGAGTCTCAACCCGTGCTAG	0.115
TTACGTTTCGACACTGGGTTAGTGCTA	4.3
GACGGTCTCGGAGTGGGGACGTGCTAG	-0.841
TTAGGTTGCGGTATCGGTTAGTGCTAG	0.691
GACGATTCCGGTTTCGAGACGTGCTAG	4.42
TAGACTCTGTGCTTTCCTCGTGTGCTA	1.21
CTTGGTAAATTTAGCCGACGGTGCTAG	-0.184
TTAAGTCTCGGTTTCGGTTAGTGCTAG	7.85
TTAGATATCGGTACTGGATTAGTGCTA	0.265
TCATATAGGTTGTTTCTAACTGTGCTA	0.716
GACGATTTCCTTATCCTGACGTGCTAG	2.04
TCATCTTCAGGTTCTCCCACTGTGCTA	1.92
CTTTTTTTCTTTTATTAGTGGTGCTAG	3.36

Series 2
Target: Histone acetyltransferase KAT6A, winged helix 1, GST fusion (KAT6A, Homo sapiens, UniProt Q92794, residues 1-85)
Method: protein binding microarray
Molecule type: double-stranded DNA, one strand shown
Medium: in vitro
Tested at: not given
Notes: 8-mer, flanks averaged, mean of 2 arrays, mostly near background
Relative to: not given
Reading: higher = stronger binding
Target sequence (chain): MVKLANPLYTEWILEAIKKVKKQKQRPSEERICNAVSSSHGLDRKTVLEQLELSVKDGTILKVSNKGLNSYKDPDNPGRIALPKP
Oligonucleotide	E-score
ACTGTTTG	-0.0863
CTAGACAG	-0.0259
TAAGGCCA	-0.0285
AAACCTAT	0.00619
GCCGTGTA	0.343
ATTGAAAC	-0.185
CATCGCTA	-0.11
AATCAAAA	-0.156
CAGCACAG	-0.187
AGGCCGTA	0.322
GTACCGAC	0.17
GTGCGAAA	-0.0474
GAGGGTCC	-0.131
GTGACTCA	0.00941
TAAAGGCA	-0.205
TCTCATCA	-0.233
ACTTGTGA	-0.223
ACAGCTCT	-0.232
AGAACGTG	0.0174
GAGACAAA	-0.246
GAAACACA	-0.0356
TGTGGGAA	-0.24
GTGAAACA	-0.0704
GGTTGTTA	0.0589
GTATGATA	-0.031

Series 3
Target: RING finger protein unkempt homolog, zinc fingers 1-6, GST-SBP tag (UNK, Homo sapiens, UniProt Q9C0B0, residues 30-357)
Method: RNA Bind-n-Seq
Molecule type: RNA
Medium: in vitro
Tested at: not given
Notes: RNA with constant flanks, human-mouse chimeric sites, ends assumed
Relative to: input RNA pool
Reading: higher = stronger binding
Constant ends, left off below: GGGAGUUCUACAGUCCGACGAUC … CAACAGAGGAUUGAGCAUCA
Residues (chain): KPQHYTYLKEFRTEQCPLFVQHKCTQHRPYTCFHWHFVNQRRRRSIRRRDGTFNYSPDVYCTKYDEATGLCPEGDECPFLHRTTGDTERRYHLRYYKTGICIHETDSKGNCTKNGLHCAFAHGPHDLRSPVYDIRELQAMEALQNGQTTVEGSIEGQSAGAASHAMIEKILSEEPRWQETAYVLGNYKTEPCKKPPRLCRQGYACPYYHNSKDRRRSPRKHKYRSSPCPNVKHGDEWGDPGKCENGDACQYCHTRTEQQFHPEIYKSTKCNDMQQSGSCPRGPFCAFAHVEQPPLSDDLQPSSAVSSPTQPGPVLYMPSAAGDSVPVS
Oligonucleotide	bound/input enrichment [ratio]
UAAAUUAGGGCUGCCGUCCGUUCUCACUCCCUGGGCUGCGGAAAGCCAGAAGAUUUUAUCUAGCUUAUACAAGGCUGCUGGUGUUCCCUCUUUUUUUCCACGAGGGUUUUUUUUCCAGCA	0.59
UAUAUCACCAAUGUUCUACAAAAUCCUGACUUGGCUCUGAGAAUGGCUGUACGUAAUAACUUAGCUGGUGCUGAAGAACUCUUUGCCCGGAAAUUUAAUGCUCUCUUCGCCCAGGGAAAC	0.529
CAGUCCCCGUGUCCCAGGGGACAAUGUGAACAUGGACAACUCAAAGCGGACCCUCUAUUGUAGUUCUUGAUUCUCGAAAUGUGCUAUUAUUGUUUGUCUUUUUUUUUUUUUUUUUAAAGA	2.43
ACCUCCCAGGCCUGGGACACCCCACCCCCGCUUUUUGGAAAGUUUUUGGCGUUUCUUUUCCUUCCCCAUACAAAGUGAUUACAGUUUCCCCCGCAAGGGUCUAUCGAAGGGCUUGACGGA	0.629
UCUUUAAAAAAAAAAUUACCUUUUCUGCAUAUUAUAGCCCUCCCAUAGGUCCAGGUUCAAGCUCAAAGAGCAAAGGCUUUGCACGGAGCUCAAACAUCUGAUGAAGAAAGAUUUCUGAGA	3.02
AAAGAACUACUGAGGCAAGGCAGCAAAUUUAGGAGAGACAUUUCAACAAUAUUGAUAGAGUUAGGAUUCCAAAUUAAAAAGAAAACUAAGACAUUAUAUAUCAACAAAGCCAAUGUGUGG	9.31
UUAAUCCCCUUCGUUGCUCCCCCACUUCUCAUGGUAAUAACAAAGUCUUAUAUUCCCGUCCUAGCUUUCACUCAGAUGGCUUAUGGAGCCGGUUUCCUAGCUUUCUUGGGAGGGAUCAGA	0.388
GUUGCCAGCUUCCGGUUCCGUUGGGCUCGGUUCUCUCCUGAGCUACGUGUCUCUACGUUUUAGGUGUGCCAUCCAACAAACAUGGAUGAUCAGGUAAAGUUUGUGGAGCCCAGCCGGCAG	0.132
UAAGUCCUGUGCCAGCACUUCGCUCAUAAAGUUUUAAAUUCUGGACCAAUAGUGUUUAUCUUUAGAAUAUUGUAUCCAAUACUUUGCCUAGUAUGUAACUCAUGCUUACUGAUAAUAAAA	4.34
AGAGAUAAGACAUCCAGGAACAUGCGAGGCUCCCGGAUGAAUGGGUUGCCUAGCCCCACUCAUAGUGCCCACUGUAGCUUCUACAGAACCAGAACCUUGCAGGCACUGAGUAAUGAGAAG	0.0907
GCGAACAGGACUACAGAAGAAUGCUGAAUUUCAGUCACUUGCUGAUGACUUCUGAUGUCCCAGCAAAUGUUGGCAUUGUUGACUGCUGAGAAGAUACUUCUGAGGACCCACGUCUAAGGU	0.0876

Series 4
Target: Ras GTPase-activating protein-binding protein 1, C-terminal RGG region (G3BP1, Homo sapiens, UniProt Q13283)
Chain of UniProt Q13283 (whole entry, looked up): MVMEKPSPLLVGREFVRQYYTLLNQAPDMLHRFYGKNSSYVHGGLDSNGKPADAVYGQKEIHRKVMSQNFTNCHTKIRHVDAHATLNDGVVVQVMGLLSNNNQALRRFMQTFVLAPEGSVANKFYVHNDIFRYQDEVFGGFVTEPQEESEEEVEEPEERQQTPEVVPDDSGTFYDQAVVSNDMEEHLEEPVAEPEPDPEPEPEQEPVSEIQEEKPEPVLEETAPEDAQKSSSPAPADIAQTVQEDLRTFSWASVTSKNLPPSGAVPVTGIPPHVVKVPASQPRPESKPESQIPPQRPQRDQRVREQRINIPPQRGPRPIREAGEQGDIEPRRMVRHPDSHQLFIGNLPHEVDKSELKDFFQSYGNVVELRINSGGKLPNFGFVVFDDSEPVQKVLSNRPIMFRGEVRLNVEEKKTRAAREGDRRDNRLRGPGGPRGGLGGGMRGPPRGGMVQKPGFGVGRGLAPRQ
Method: RNA Bind-n-Seq
Molecule type: RNA
Medium: in vitro
Tested at: 1 µM
Notes: whole 134-nt RNA, ends assumed
Added: 150 mM KCl
Relative to: input library
Reading: higher = stronger binding
Constant ends, left off below: GGGAGUUCUACAGUCCGACGAUC … UGGAAUUCUCGGGUGUCAAGG
Oligonucleotide	log2 enrichment
GCAGGAAGUAAAAACAAAUGGAAAUGCUUCGGAUAGUGGCAGGGGUGGGGGUGGCUAAGGAAAGGGUGGGAUGGGAGUGGGUAAAGAGUU	0.775
UAACUUUAGAGGAGGAUCUGAUGGAUAUGGCAGAGGACGUGGAUUUGGGGAUGGCUAUAAUGGGUAUGGAGGAGGACCUGGAGGUGGCAA	-0.56
UGGGAGGUGGAUUUUGUUUAUUUUUUUAGCUCAUUUCCAGGGGUGGGAAUUUUUUUUUAAUAUGUGUCAUGAAUUAAGUUGUUUUUGAAA	2.39
UGGCCCUGGUGGCAUGCGGGGAGGAAGAGGUGGCCUCAUGGAUCGUGGUGGUCCCGGCGGAAUGUUCAGAGGUGGCCGUGGUGGAGACAG	2.08
UGUGCUACACAUCGUAUGUACCGAAUCGGGGAAAAAGGGGUUUUUUUGGGGUUUUUUUGGGGAAAGUAUUAUGUUACGCCGUUCGGAUCU	0.0851
UGGCCCUGGUGGCAUCCGGGGAGGAAGAGGUGGCCUCAUGGAUCGUGGUGGUCCCGGUGGAAUGUUCAGAGGUGGCCGUGGUGGAGACAG	2.02
CAAGUCCUGUGCUACACAUCGUAUGUACCGAAUCGGGAAAGGGAAAGGGAAAGGGAAAGUAUUAUGUUACGCCGUUCGGAUCUGCACUUC	1.04
CCUGUGCUACACAUCGUAUGUACCGAAUCGGGAAAAAAAGGGUUUUUUUGGGUUUUUGGGAAAGUAUUAUGUUACGCCGUUCGGAUCUGC	-1.85
UGGGAGGUGGAUUAUGUUUAUUUUUUUAGCUCAUUUCCAGGGGUGGGAAUUUUUUUUUAAUAUGUGUCAUGAAUAAAGUUGUUUUUGAAA	2.91
CACAGACAACACGCACCCACACAGACACAGAGGGAAGGGGUUGGGAUGGGGCCAGGGUGCACAGCAGGGCGGGGUAGGACCCCAGCCCCU	-0.381
UGGGCAUUUUGGUGGAGACGAUGAGCACCAACGACACGAUCGUCAGUGGCACGCUGCCCCAGCGCAUGGCGUCCUGCCUGGAGGUGCUGG	-1.38
CCUCAAGUCCUGUGCUACACAUCGUAUGUACCGAAUCGGCCGGGGCCGGCCGGAAAGUAUUAUGUUACGCCGUUCGGAUCUGCACUUCCA	-0.999
CUGUGCUACACAUCGUAUGUACCGAAUCGGGUUUUUUUGGGGUUUUUUUGGUUUUUUUGGGAAAGUAUUAUGUUACGCCGUUCGGAUCUG	-1.28
GUCCUGUGCUACACAUCGUAUGUACCGAAUCGGUUUUUUGGGGUUUUUUGGUUUUUUGGAAAGUAUUAUGUUACGCCGUUCGGAUCUGCA	-1.39
